Measurements of several laboratories.
Every numbered part comes from another study and shows a few of its results, in no order. Several values in a cell are separate wells, animals, samples, runs or records.
UniProt P07947, sequence (whole entry, looked up): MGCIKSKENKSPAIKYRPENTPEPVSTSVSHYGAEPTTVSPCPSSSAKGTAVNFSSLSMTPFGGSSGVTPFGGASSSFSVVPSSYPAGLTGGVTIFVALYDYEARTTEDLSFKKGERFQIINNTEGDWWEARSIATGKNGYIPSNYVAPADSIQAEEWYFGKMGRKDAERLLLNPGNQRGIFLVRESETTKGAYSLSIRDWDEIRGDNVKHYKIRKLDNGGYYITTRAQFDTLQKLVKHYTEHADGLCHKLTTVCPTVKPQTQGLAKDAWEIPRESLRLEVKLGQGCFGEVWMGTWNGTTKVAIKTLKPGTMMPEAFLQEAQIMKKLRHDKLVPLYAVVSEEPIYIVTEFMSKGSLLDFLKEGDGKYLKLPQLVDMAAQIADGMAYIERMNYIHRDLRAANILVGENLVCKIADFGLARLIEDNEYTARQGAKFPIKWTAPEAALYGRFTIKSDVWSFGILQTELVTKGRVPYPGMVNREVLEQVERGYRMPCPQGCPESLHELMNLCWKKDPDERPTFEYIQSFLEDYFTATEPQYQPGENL
UniProt Q8NFD2, sequence (whole entry, looked up): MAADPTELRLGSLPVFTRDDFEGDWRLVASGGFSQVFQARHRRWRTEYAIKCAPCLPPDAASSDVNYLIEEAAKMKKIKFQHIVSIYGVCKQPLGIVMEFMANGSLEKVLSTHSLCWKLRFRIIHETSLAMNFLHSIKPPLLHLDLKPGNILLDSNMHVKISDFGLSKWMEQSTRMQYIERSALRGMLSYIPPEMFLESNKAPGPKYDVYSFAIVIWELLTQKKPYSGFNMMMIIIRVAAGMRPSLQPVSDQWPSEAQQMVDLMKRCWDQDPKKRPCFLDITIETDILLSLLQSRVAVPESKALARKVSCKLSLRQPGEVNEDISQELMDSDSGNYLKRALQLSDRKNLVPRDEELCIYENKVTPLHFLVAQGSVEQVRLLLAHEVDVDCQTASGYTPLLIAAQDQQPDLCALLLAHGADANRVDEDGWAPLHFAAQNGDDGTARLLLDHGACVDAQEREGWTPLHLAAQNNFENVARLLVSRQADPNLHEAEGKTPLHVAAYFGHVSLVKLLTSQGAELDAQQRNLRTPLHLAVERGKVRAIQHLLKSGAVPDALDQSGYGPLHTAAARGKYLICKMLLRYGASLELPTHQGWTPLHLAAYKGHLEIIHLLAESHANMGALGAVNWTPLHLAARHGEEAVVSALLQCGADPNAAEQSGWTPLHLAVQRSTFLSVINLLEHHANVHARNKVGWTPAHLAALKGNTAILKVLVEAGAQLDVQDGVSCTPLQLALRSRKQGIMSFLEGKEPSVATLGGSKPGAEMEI
UniProt Q13523, sequence (whole entry, looked up): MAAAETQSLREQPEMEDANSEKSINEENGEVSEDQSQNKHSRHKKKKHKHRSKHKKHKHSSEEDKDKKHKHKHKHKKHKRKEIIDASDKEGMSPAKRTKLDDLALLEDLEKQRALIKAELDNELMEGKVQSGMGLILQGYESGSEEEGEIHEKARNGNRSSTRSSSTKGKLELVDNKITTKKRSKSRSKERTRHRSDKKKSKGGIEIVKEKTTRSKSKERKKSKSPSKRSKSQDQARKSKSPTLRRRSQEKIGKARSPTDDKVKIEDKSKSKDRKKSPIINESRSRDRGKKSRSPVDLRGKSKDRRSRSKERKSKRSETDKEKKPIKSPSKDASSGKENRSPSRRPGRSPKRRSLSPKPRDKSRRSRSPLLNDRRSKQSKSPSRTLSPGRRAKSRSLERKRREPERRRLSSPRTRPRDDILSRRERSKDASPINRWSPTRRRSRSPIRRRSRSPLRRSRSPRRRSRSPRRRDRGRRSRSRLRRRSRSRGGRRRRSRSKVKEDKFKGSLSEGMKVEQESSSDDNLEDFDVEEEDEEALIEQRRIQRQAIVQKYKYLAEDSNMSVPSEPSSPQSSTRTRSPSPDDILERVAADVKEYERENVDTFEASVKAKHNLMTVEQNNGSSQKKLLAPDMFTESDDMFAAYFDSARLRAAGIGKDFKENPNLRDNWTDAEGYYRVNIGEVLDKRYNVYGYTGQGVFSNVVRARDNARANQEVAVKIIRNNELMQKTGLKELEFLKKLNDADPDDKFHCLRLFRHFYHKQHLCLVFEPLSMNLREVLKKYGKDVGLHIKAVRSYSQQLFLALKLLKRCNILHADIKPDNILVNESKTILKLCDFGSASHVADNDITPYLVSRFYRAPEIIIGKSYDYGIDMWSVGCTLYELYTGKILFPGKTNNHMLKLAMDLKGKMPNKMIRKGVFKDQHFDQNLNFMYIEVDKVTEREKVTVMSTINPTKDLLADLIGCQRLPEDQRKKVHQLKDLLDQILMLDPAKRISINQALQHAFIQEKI
UniProt Q9UEE5, sequence (whole entry, looked up): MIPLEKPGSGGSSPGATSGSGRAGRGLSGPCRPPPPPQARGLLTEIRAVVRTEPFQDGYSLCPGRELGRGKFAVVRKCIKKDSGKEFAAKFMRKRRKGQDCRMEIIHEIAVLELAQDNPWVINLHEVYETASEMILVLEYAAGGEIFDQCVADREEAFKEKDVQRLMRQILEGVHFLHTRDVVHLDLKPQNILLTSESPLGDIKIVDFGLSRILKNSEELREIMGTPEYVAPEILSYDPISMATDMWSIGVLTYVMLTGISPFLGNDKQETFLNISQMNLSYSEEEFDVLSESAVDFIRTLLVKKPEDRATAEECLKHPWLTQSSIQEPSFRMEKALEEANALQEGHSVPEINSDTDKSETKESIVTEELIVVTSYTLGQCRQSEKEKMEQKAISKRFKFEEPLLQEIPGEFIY
UniProt P08922, sequence (whole entry, looked up): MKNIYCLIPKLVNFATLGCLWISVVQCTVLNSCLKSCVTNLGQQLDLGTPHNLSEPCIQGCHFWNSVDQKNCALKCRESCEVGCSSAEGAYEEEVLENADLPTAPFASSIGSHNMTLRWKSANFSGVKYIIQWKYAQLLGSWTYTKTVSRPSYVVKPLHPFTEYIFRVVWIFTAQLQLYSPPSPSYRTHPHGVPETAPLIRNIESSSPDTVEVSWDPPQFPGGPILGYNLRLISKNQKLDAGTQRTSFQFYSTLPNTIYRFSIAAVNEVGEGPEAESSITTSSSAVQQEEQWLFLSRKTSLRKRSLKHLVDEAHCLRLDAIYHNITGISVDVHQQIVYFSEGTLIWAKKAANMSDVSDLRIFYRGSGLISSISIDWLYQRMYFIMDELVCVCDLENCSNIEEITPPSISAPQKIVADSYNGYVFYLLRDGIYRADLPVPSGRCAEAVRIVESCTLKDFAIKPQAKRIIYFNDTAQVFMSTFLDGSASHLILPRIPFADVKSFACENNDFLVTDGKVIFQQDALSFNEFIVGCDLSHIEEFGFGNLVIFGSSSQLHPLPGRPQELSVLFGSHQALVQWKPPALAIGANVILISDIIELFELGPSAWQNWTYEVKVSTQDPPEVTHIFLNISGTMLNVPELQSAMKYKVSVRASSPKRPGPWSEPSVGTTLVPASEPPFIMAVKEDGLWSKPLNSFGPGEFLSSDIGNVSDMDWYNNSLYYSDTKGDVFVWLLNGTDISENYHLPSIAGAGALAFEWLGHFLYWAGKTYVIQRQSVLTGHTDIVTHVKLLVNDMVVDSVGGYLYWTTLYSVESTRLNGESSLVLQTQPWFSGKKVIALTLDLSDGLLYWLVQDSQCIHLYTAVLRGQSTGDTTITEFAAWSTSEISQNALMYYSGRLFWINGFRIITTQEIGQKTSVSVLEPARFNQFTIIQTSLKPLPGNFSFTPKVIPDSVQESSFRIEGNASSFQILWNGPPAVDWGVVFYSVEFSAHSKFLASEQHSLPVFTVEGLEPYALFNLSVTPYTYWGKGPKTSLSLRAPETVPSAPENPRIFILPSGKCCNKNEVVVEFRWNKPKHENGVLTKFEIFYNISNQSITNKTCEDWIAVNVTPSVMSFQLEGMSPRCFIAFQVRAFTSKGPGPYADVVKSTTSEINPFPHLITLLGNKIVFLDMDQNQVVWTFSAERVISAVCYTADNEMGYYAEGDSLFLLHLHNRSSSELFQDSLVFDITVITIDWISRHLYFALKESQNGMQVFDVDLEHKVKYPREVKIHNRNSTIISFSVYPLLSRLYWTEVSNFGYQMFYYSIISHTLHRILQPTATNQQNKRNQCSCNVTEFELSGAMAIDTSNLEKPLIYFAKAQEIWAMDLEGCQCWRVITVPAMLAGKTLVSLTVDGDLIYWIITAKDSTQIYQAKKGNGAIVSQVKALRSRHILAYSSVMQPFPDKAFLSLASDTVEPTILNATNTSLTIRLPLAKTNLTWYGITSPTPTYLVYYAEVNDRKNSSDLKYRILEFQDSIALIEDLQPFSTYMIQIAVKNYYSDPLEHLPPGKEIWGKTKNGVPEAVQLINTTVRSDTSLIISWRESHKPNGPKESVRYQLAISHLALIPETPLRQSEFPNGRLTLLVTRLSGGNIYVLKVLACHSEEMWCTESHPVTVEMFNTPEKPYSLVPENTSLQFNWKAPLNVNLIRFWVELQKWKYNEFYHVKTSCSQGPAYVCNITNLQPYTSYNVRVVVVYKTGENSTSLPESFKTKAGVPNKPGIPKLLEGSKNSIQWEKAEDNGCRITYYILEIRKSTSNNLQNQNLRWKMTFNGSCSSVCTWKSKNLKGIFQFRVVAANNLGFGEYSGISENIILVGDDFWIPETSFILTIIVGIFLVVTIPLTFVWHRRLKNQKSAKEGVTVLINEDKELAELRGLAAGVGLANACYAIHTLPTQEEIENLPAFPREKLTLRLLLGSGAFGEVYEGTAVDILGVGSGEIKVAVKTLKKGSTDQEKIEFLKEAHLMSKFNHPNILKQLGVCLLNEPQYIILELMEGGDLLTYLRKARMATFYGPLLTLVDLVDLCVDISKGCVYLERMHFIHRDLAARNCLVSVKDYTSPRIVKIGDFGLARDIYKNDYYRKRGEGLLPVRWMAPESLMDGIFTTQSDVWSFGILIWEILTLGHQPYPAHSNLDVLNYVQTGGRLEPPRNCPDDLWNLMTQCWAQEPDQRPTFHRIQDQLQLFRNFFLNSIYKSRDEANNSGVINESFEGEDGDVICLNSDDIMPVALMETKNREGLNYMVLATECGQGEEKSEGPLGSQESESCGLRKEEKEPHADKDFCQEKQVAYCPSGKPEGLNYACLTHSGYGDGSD

Set 1
Structure (SMILES): CC[C@@]1(c2ccccc2)C2=C(CC(C)(C)CC2=O)Nc2n[nH]cc21
Tested at: 1 µM
target	effect on	method	baseline	remaining binding [%]
Serine/threonine-protein kinase ICK (CILK1, Homo sapiens, UniProt Q9UPZ9)	kinase binding	KINOMEscan	DMSO control	100
Proto-oncogene tyrosine-protein kinase ROS (ROS1, Homo sapiens, UniProt P08922)	kinase binding	KINOMEscan	DMSO control	100
cAMP-dependent protein kinase catalytic subunit PRKX (PRKX, Homo sapiens, UniProt P51817)	binding	competition with immobilised ligand	–	86
Tyrosine-protein kinase Lck (LCK, Homo sapiens, UniProt P06239)	binding	competition with immobilised ligand	–	100
Glycogen synthase kinase-3 alpha (GSK3A, Homo sapiens, UniProt P49840)	kinase binding	KINOMEscan	DMSO control	8.5
Serine/threonine-protein kinase 17A (STK17A, Homo sapiens, UniProt Q9UEE5)	binding	competition with immobilised ligand	–	97
Mitogen-activated protein kinase 7 (MAPK7, Homo sapiens, UniProt Q13164)	binding	competition with immobilised ligand	–	100
Tyrosine-protein kinase ZAP-70 (ZAP70, Homo sapiens, UniProt P43403)	kinase binding	KINOMEscan	DMSO control	100
Tyrosine-protein kinase Yes (YES1, Homo sapiens, UniProt P07947)	kinase binding	KINOMEscan	DMSO control	100
Bone morphogenetic protein receptor type-2 (BMPR2, Homo sapiens, UniProt Q13873)	binding	competition with immobilised ligand	–	97
Myotonin-protein kinase (DMPK, Homo sapiens, UniProt Q09013)	binding	competition with immobilised ligand	–	96
Phosphatidylinositol 4,5-bisphosphate 3-kinase catalytic subunit alpha isoform (PIK3CA, Homo sapiens, UniProt P42336)	kinase binding	KINOMEscan	DMSO control	100
Tyrosine-protein kinase ABL1, phosphorylated (ABL1, Homo sapiens, UniProt P00519, F317I)	binding	competition with immobilised ligand	–	98
Ankyrin repeat and protein kinase domain-containing protein 1 (ANKK1, Homo sapiens, UniProt Q8NFD2)	binding	competition with immobilised ligand	–	100
Serine/threonine-protein kinase PRP4 homolog (PRPF4B, Homo sapiens, UniProt Q13523)	binding	competition with immobilised ligand	–	70
Serine/threonine-protein kinase LATS2 (LATS2, Homo sapiens, UniProt Q9NRM7)	binding	competition with immobilised ligand	–	100
Mitogen-activated protein kinase 3 (MAPK3, Homo sapiens, UniProt P27361)	binding	competition with immobilised ligand	–	100
Serine/threonine-protein kinase WNK4 (WNK4, Homo sapiens, UniProt Q96J92)	kinase binding	KINOMEscan	DMSO control	83
Serine/threonine-protein kinase 4 (STK4, Homo sapiens, UniProt Q13043)	binding	competition with immobilised ligand	–	100

Set 2
Structure (SMILES): Cc1ncsc1-c1ccc(C2(NC(=O)C3CC(O)CN3C(=O)C(NC(=O)c3ccc(COc4c(-c5c(C)c(F)cc6[nH]ncc56)c(C5CC5)cc5c(N6CC7CC6CN7)nc(OC6CCOCC6)nc45)cc3)C(C)C)CC2)cc1 (centres unmarked)
Cell line: AsPC-1
Method: in-cell ELISA
Setting: individual replicates
tested at	phospho-ERK1/2 level
10 µM	5.94% and 7.82% and 11.9% and 13.3% and 12.3% and 9.38%
100 nM	72.6% and 61.3% and 58.3% and 71.2% and 82.6% and 69.7%
30 nM	89.1% and 94.8% and 102% and 86.1% and 89%
3 µM	10.1% and 9.91% and 10.4% and 9.34% and 7.26% and 10.6%
1 µM	9.4% and 8.04% and 12.1% and 14.5% and 15% and 7.55%
300 pM	102% and 92.3% and 101% and 106% and 105% and 96.3%

Set 3
Structure (SMILES): Cc1ccc(O)c(C)c1-c1cnc2[nH]c(-c3cnc(N4CCC5(CC4)CC(N4CCN(c6ccc7c(c6F)CN(C6CCC(=O)NC6=O)C7=O)CC4)CO5)nc3)cc2c1C#N (mixture of isomers)
Cell line: HCC1569
Method: in-cell western
Item: CDK1 phospho-Thr14
tested at	pCDK1 (Thr14) level
111.11 nM	76.9 RLU and 74.9 RLU
1.37 nM	13.4 RLU and 7.04 RLU
1000 nM	108 RLU
0.0051 nM	6.36 RLU and 4.72 RLU
12.35 nM	32.9 RLU and 36.5 RLU
333.33 nM	95.6 RLU and 90.2 RLU
37.04 nM	54.9 RLU and 52.4 RLU
4.12 nM	25.1 RLU and 18.2 RLU

Set 4
Structure (SMILES): CCN1/C(=C/C=C2\CCCC(/C=C/C3=[N+](CC)c4ccccc4C3(C)C)=C2NCCCCCCCCN2CCC(Nc3nc4ccccc4n3Cc3ccc(F)cc3)CC2)C(C)(C)c2ccccc21
Cell line: U-87 MG
Tested at: concentration not given
Baseline: DMSO
item	log2 fold change
RAB26 mRNA	-2.73
CAV2 mRNA	-1.05
TMEM132B mRNA	2.17
GTSE1 mRNA	-2.41
ELOVL4 mRNA	1.04
BTBD9 mRNA	0.822
UBASH3B mRNA	-0.825
SLC41A2 mRNA	1.48
CDCA4 mRNA	-1.35
USP36 mRNA	1.06
PPP4R4 mRNA	1.25

For quick reference, copied from above (set 1):
target	effect on	method	baseline	remaining binding [%]
Tyrosine-protein kinase Yes (YES1, Homo sapiens, UniProt P07947)	kinase binding	KINOMEscan	DMSO control	100
Bone morphogenetic protein receptor type-2 (BMPR2, Homo sapiens, UniProt Q13873)	binding	competition with immobilised ligand	–	97
Myotonin-protein kinase (DMPK, Homo sapiens, UniProt Q09013)	binding	competition with immobilised ligand	–	96
Phosphatidylinositol 4,5-bisphosphate 3-kinase catalytic subunit alpha isoform (PIK3CA, Homo sapiens, UniProt P42336)	kinase binding	KINOMEscan	DMSO control	100
